Measured values gathered from unrelated publications.
Protocols differ between the studies behind these lines. “And” joins repeats or separate records; there may be more than shown. Numbers after ± are the reported error. Values after ≈ are worked out from the molar mass of the structure shown.

SMILES	assay	system	conditions	how to read	quantity	result
C1=C/COCc2cc(ccc2OCCN2CCCC2)Nc2nccc(n2)-c2cccc(c2)COC/1		rat plasma	2 ng/mL, 1 months, -20 °C, long-term storage	baseline: nominal concentration	stability relative error	-3.39%
CCN1CCN(Cc2ccc(NC(=O)c3ccc(C)c(NC(=O)c4cncc(-c5cccs5)c4)c3)cc2C(F)(F)F)CC1		C57BL/6 mice, epithelial lining fluid	intraperitoneal, 10 mg/kg		extrapolated AUC share	7.83%
CC(C)(C(=O)N1CCOc2c(C#N)cncc2C1)C(F)F		human, both sexes	oral, 20 mg single dose		subjects with contact dermatitis TEAE	0%
CCO		healthy Chinese men	0.5 g/kg, supine or semi-supine, together with: placebo		AUEC(0-4 h) diastolic BP	-26 ± 21.3 h·mmHg
OC[C@H]1O[C@@H](c2ccc(F)c(Cc3cc4ccccc4s3)c2)[C@H](O)[C@@H](O)[C@@H]1O		Japanese type 1 diabetes patients	oral, 25 mg/day, day 13		hypoglycaemia adverse events	4 % patients
CCc1cc(C(=O)NC)c2nccc(N3CCc4c(cc(Cn5ccnc5)cc4-c4cn(C)nc4C(F)(F)F)C3=O)c2c1		Sprague Dawley rat	oral, 100 mg/kg twice daily, day 6, 7-day toxicology study		body weight	235 ± 5.9 g
O=C(Nc1nc2cccc(-c3ccc(CN4CCS(=O)(=O)CC4)cc3)n2n1)C1CC1	refers to: rheumatoid arthritis	rheumatoid arthritis patients	oral, 30 mg once daily, 4 weeks, any relatedness		treatment-emergent adverse events	0%
Cc1cc(NC2CCN(C(=O)OC3CCN(C(=O)/C=C/CN(C)C)C3)CC2)n2ncc(C(C)C)c2n1 (stereo not drawn)	Phase I dose escalation CTCAE v4.0, refers to: platelet count decreased	patients with advanced solid tumours	dose not given, QD dosing any grade		patients with adverse event	21%
Cc1c(-c2ccc(N3CCc4cccc(C(=O)Nc5nc6ccccc6s5)c4C3)nc2C(=O)O)cnn1CC12CC3(C)CC(C)(C1)CC(OCCNCC[C@H](O)CO)(C3)C2		anaesthetized male beagle dog	iv infusion, 0.3 mg/kg/min, 45 min		plasma concentration	9.48 ng/mL and 3.84 ng/mL
CC(F)(F)c1nc2nc(CO)cc(Nc3ccc(S(F)(F)(F)(F)F)cc3)n2n1	LC-MS/MS	malaria patients, plasma	oral, 250 mg of parent drug		AUC(0-t), metabolite	108000 ng·h/mL
CC(=O)O[C@H]1C(=O)[C@@]2(C)[C@H]([C@H](OC(=O)c3ccccc3)[C@]3(O)C[C@H](OC(=O)[C@H](O)[C@@H](NC(=O)c4ccccc4)c4ccccc4)C(C)=C1C3(C)C)[C@]1(OC(C)=O)CO[C@@H]1C[C@@H]2O		human patients	intravenous, dose not given, cycle 2 day 1, range	baseline: cycle 1 day 8	clearance change	-69 to 39%
COc1cccc(-c2n[nH]c(SCc3ccccn3)n2)c1OC		Sprague-Dawley rats, both sexes	oral dietary, 30 mg/kg/day, day 90, 1 h		plasma concentration	1360 ng/mL
C[C@H]1O[C@@H](O[C@H]2[C@@H](O)C[C@H](O[C@H]3[C@@H](O)C[C@H](O[C@H]4CC[C@@]5(C)[C@H](CC[C@@H]6[C@@H]5C[C@@H](O)[C@]5(C)[C@@H](C7=CC(=O)OC7)CC[C@]65O)C4)O[C@@H]3C)O[C@@H]2C)C[C@H](O)[C@@H]1O	refers to: vessel puncture site pain	human	oral, 0.25 mg		participants with TEAE	0%
C[C@@H](NC(=O)N1C(=O)[C@H](Cc2ccnc(N)c2)[C@H]1C(=O)O)C1CCCCC1	UPLC-MS/MS	healthy adult Chinese volunteers, plasma	continuous intravenous infusion, 2.25 mg/kg/h, day 6 of 5-day infusion, mean		Vd	0.521 L/kg
O=c1c2ccccc2oc2ccccc12		tricaprin-tricaprylin mixture	60 °C, tricaprin fraction 0.17		solubility	0.071 mole fraction
NC(=O)N1c2ccccc2CC(O)c2ccccc21 (stereo not drawn)	population PK modelling	human patients, plasma	joint parent-metabolite model		clearance	3.06 L/h
NC(CO)(CO)CCc1ccc(Sc2cccc(OCc3ccccc3)c2)cc1Cl	population PK model	human, blood	oral, 3 mg, cyclosporin covariate on CL		clearance typical value	372 mL/min
O=C1NCCc2nc(OCc3cccc(F)c3)ccc21	refers to: Ptosis	Sprague-Dawley rat male	oral, 100 mg/kg, 30 min	direction not given	Irwin test score	0
O=C(CCCCCCC(=O)Nc1ccc(CC[18F])cc1)NO		athymic nu/nu male mice, LNCaP xenograft, liver	intravenous, 1 h		tissue uptake	4.9 ± 0.6 %ID/g
Cn1cc(Nc2nccc(-c3ccc4c(c3)CN(C3COC3)CC[C@H]4NC(=O)c3cn(C(C)(C)C)nn3)n2)cn1		human, whole blood	50 mg twice daily, day 14	baseline: pre-dose baseline	CD4+ T cell count change	4.38%
Cc1c(Cl)cccc1Nc1ccccc1C(=O)O	shake-flask	Cremophor ELP	37 °C, water up to 0.5% w/w		thermodynamic solubility	50.3 ± 1.42 mg/g

SMILES	assay	system	conditions	how to read	quantity	result
CC1(CNC(=O)[C@H](CN)NC(=O)c2ccc(-c3ccc(Br)cc3)cc2)NC(=O)NC1=O (stereo partly drawn)		aqueous buffer	pH 7.4		thermodynamic solubility	329 µM
C[Si](C)(C)O[Si](C)(C)C			0.7 to 42 µg/L, 12.4 °C		log KOA	2.94
N#Cc1ccc2c(c1)[C@H]1CCCN(C(=O)c3ccc4[nH]cnc4c3)[C@H]1C2		human, male	80 mg, end of trial		androstenedione level	5.6 nmol/L
C[C@@H](c1ccc2nccn2c1)n1nnc2ncc(-c3cnn(C)c3)nc21	refers to: neutrophil count decreased	EGFR-mutant MET-altered NSCLC patients	oral, dose not given, AE grade ≥3, all		incidence of treatment-related AEs	6%
O=C(O)CCC(=O)O.[2H]C([2H])([2H])Oc1cc(C)c2[nH]ccc2c1CN1CC[C@@H](C2CC2)C[C@H]1c1ccc(C(=O)O)cc1	multiple ascending dose	healthy Chinese subjects	100 mg twice daily		subjects with hyponatraemia	0%
N[C@@H](CC(=O)N1CCc2c(nc(C(F)(F)F)nc2C(F)(F)F)C1)CN1CC(F)(F)CCC1=O		healthy Korean adults, fasted, plasma	oral, 50 mg single dose, separate tablets, together with: enavogliflozin 0.3 mg		apparent clearance CL/F	37200 ± 7200 mL/h
CCN(CC)Cc1ccc2cc(COC(=O)Nc3ccc(C(=O)NO)cc3)ccc2c1		rat plasma	800 ng/mL, 21 days, -80 °C	baseline: nominal concentration	stability relative error	97.5%
COc1ccc2nc(COc3ccc(CC4SC(=O)NC4=O)cc3)n(C)c2c1 (stereo not drawn)		aqueous buffer	pH 7.4		thermodynamic solubility	> 2290 µg/mL
Nc1ncnc2c1ncn2[C@H]1C[C@@H]2OP(=O)(O)OC[C@H]3O[C@@H](n4cnc5c(N)ncnc54)C[C@@H]3OP(=O)(O)OC[C@H]2O1		non-tumor-bearing mice, serum	intravenous, 1 mg/kg, toxicity study		ALP	187 ± 61.1 U/L
CC1(C)C(/C=C/C2=C(Cl)C(=C/C=C3\N(CCCCCC(=O)O)c4ccccc4C3(C)C)/CCC2)=[N+](CCCCCC(=O)O)c2ccccc21		methanol			molar absorption coefficient	232000 M⁻¹ cm⁻¹
COc1ccnc(C(=O)N[C@@H](CO)C(=O)O[C@@H](C)[C@H](O)[C@@H](Cc2ccccc2)C(=O)O)c1O		bovine muscle	-18 °C		storage stability	3 months
CNC(=O)c1ccc(-c2cnc3ncc(Cc4ccc5ncccc5c4)n3n2)cc1F	refers to: Nausea, all grades	gastric cancer patients	oral, 600 mg twice daily, expansion cohort, any causality		patients with adverse event	33%
c1ccc(-c2nc(N3CCc4cccnc4C3)c3ccccc3n2)nc1		Japanese Pharmacopoeia disintegration test solution 2	pH 6.8		kinetic solubility	77 µg/mL (≈ 227 µM)
CC1(C)CCC(CN2CCN(c3ccc(C(=O)NS(=O)(=O)c4ccc(NCC5CCOCC5)c([N+](=O)[O-])c4)c(Oc4cnc5[nH]ccc5c4)c3)CC2)=C(c2ccc(Cl)cc2)C1	final population PK model	AML patients			apparent clearance (CL/F)	452 L/day
CNC(=O)c1ccc(-c2cnc3ncc(Cc4ccc5ncccc5c4)n3n2)cc1F	refers to: adverse events of grade 1 or higher	healthy human subjects	oral, 400 mg, induction cohort, all-causality, together with: rifampicin 600 mg/day		subjects with adverse events	42.3%
C[C@@H](Oc1ccc(S(C)(=O)=O)cc1C(=O)N1C[C@@H]2C[C@]2(c2cc(C(F)(F)F)on2)C1)C(F)(F)F		human	oral, 25 mg		subjects with discoloured faeces	16.7%
C=CC(=O)N(C)CCOc1c(N)ncnc1-c1cc(F)cc(NC(=O)c2ccc(C3CC3)cc2F)c1C		human, whole blood	oral, 600 mg once daily, day 1		AUC	1080 ng·h/mL
CCCCC[C@H]1CC[C@H](c2ccc(OCC)c(F)c2F)CC1		rat, placenta	10 ng/mL in perfusate, low dose, mixture of 21 LCMs		median placental accumulation	21.9 ng/g
C[C@H]1O[C@@H](O[C@H]2[C@@H](O)C[C@H](O[C@H]3[C@@H](O)C[C@H](O[C@H]4CC[C@@]5(C)[C@H](CC[C@@H]6[C@@H]5C[C@@H](O)[C@]5(C)[C@@H](C7=CC(=O)OC7)CC[C@]65O)C4)O[C@@H]3C)O[C@@H]2C)C[C@H](O)[C@@H]1O	refers to: haematoma	healthy men	oral, dose not given, 8 days, treatment-emergent, crossover trial		subjects with adverse event	0%
C[C@@H](Nc1cc(F)cc(F)c1)c1cc(C(=O)N(C)C)cc2c(=O)cc(N3CCOCC3)oc12		human, plasma	oral, 30 mg, day 1 single dose		t1/2 geometric mean	2.09 h
CCCCc1ccc(C#Cc2ccc(OCC)cc2)cc1		rat, fetus	5000 ng/mL in perfusate, high dose, mixture of 21 LCMs		median fetal accumulation	0.637 ng/g

For quick reference, copied from above:
SMILES	assay	system	conditions	how to read	quantity	result
Cc1cc(NC2CCN(C(=O)OC3CCN(C(=O)/C=C/CN(C)C)C3)CC2)n2ncc(C(C)C)c2n1 (stereo not drawn)	Phase I dose escalation CTCAE v4.0, refers to: platelet count decreased	patients with advanced solid tumours	dose not given, QD dosing any grade		patients with adverse event	21%
Cc1c(-c2ccc(N3CCc4cccc(C(=O)Nc5nc6ccccc6s5)c4C3)nc2C(=O)O)cnn1CC12CC3(C)CC(C)(C1)CC(OCCNCC[C@H](O)CO)(C3)C2		anaesthetized male beagle dog	iv infusion, 0.3 mg/kg/min, 45 min		plasma concentration	9.48 ng/mL and 3.84 ng/mL
CC(F)(F)c1nc2nc(CO)cc(Nc3ccc(S(F)(F)(F)(F)F)cc3)n2n1	LC-MS/MS	malaria patients, plasma	oral, 250 mg of parent drug		AUC(0-t), metabolite	108000 ng·h/mL
CC(=O)O[C@H]1C(=O)[C@@]2(C)[C@H]([C@H](OC(=O)c3ccccc3)[C@]3(O)C[C@H](OC(=O)[C@H](O)[C@@H](NC(=O)c4ccccc4)c4ccccc4)C(C)=C1C3(C)C)[C@]1(OC(C)=O)CO[C@@H]1C[C@@H]2O		human patients	intravenous, dose not given, cycle 2 day 1, range	baseline: cycle 1 day 8	clearance change	-69 to 39%
COc1cccc(-c2n[nH]c(SCc3ccccn3)n2)c1OC		Sprague-Dawley rats, both sexes	oral dietary, 30 mg/kg/day, day 90, 1 h		plasma concentration	1360 ng/mL
C[C@H]1O[C@@H](O[C@H]2[C@@H](O)C[C@H](O[C@H]3[C@@H](O)C[C@H](O[C@H]4CC[C@@]5(C)[C@H](CC[C@@H]6[C@@H]5C[C@@H](O)[C@]5(C)[C@@H](C7=CC(=O)OC7)CC[C@]65O)C4)O[C@@H]3C)O[C@@H]2C)C[C@H](O)[C@@H]1O	refers to: vessel puncture site pain	human	oral, 0.25 mg		participants with TEAE	0%
